Experimental data pooled from the literature.
Compare with care: the assays were run in different laboratories. “And” joins repeats or separate records; there may be more than shown.
Cell line: HepG2

O[C@@H](CNCCNC(c1ccccc1)c1ccccc1)c1cc(Cl)cc2c1-c1ccc(Cl)cc1C2 has a CC50 of 3.2 µM (cell growth or viability; 48 h).
The CC50 of NCCc1cccc(-c2nc(=O)c3ccccc3s2)n1 is reported as 73.4 µM (cell growth or viability, resazurin; 24 h).
O=C1C(NCCc2cc(Br)c(O)c(Br)c2)=CC2=NCCc3c[nH]c1c32 has a CC50 of 18 µM (cell growth or viability, MTT; 72 h).
Cc1ccc2c(=O)n3c(nc2c1)C(=O)c1cc(Cl)ccc1-3 gave a CC50 of 0.06 to 0.08 µM (cell growth or viability, ATP luminescence).
CCOC(=O)c1c(C(=O)OC)cn(CC(c2cn(C)c3ccccc23)c2cn(C)c3ccccc23)c1C gave a CC50 of over 20 µM (cell growth or viability, MTS; 24 h).
CCc1cc(CCN)nc(-c2nc(=O)c3ccc(F)cc3s2)c1 has a CC50 of over 25 µM (cell growth or viability).
O=C1C(=O)c2[nH]cc3c2C(=C1Cl)NCC3 gave a CC50 of 12.5 µM (cell growth or viability, MTT; 72 h).
CC(F)(F)CCCNC[C@H](O)c1cc(Cl)cc2c1-c1ccc(Cl)cc1C2 has a CC50 of 4.1 µM (cell growth or viability; 48 h).
For Cc1ccc2c(c1)nc(NC(=O)c1cccc(C(F)(F)F)c1)n2[C@H]1CC[C@H](N)CC1, the CC50 was 1.1 µM and 2.16 µM and 3.41 µM and 2.2 µM and 2.15 µM and 2.98 µM and 2.21 µM and 2.59 µM (cytotoxicity; 4 days, single replicate).
O=C1C(NCCc2ccc(O)cc2)=CC2=NCCc3c(Br)[nH]c1c32 gave a CC50 of 5 µM (cell growth or viability, MTT; 72 h).
O=C1c2cc(Cl)ccc2-n2c1nc1cccc(Cl)c1c2=O gave a CC50 of at least 100 µM (cell growth or viability, ATP luminescence).
Cc1cc(C(=O)Nc2nc3cccc(C)c3n2[C@H]2CCCCN(C(=O)/C=C/CN(C)C)C2)ccn1 has a CC50 of 6.35 µM and 7.91 µM and 10.1 µM and 8 µM (cytotoxicity; 4 days, single replicate).
With CCc1cc(CCC(=O)O)nc(-c2nc(=O)c3ccc(F)cc3s2)c1 the CC50 was over 25 µM (cell growth or viability).
With O=C1C(=O)c2[nH]cc3c2C(=C1I)NCC3 the CC50 was 40 µM (cell growth or viability, MTT; 72 h).
The CC50 of CCc1nnc(-c2ccc3ccn(CC(=O)Nc4cc(OC)c(OC)c(OC)c4)c3c2)o1 is reported as over 40 µM (cell growth or viability).
